# Experimental data gathered from unrelated publications.
# Compare with care: the assays were run in different laboratories. Numbers after ± are the reported error.
SMILES,assay,system,conditions,quantity,value
Cn1ncc(-c2nc(N[C@H]3CC[C@H](N)CC3)ncc2Cl)c1CC1CC1,HPLC-MS/MS,"patients, plasma","oral, 5 mg, day 1",AUC,233 ng·h/mL
Cc1cc(C)c(CNC(=O)c2cc(Cl)c3c(c2C)O[C@@](C)([C@H]2CC[C@H](N(C)C)CC2)O3)c(=O)[nH]1,,"human, relapsed/refractory NHL","concentration not given, treatment-related TEAEs, grade 5",Pruritus incidence,0%
O=C(O)CCCOc1ccc(F)cc1-c1cc(-c2ccccc2C(F)(F)F)n(-c2ccccc2)n1,refers to: CRE,"Crl:CD(SD) rats, female, blood","iv, 25 µg/kg, 1 day",blood chemistry,0.36 ± 0.03 mg/dL
CO[C@H]1C[C@@H]2CC[C@@H](C)[C@@](O)(O2)C(=O)C(=O)N2CCCC[C@H]2C(=O)O[C@H]([C@H](C)C[C@@H]2CC[C@@H](OC(=O)NCCOCCOCCOCCOCCOCCOCCOCCOCCC(=O)N3CCc4cc(Cn5nc(-c6ccc7oc(N)nc7c6)c6c(N)ncnc65)ccc4C3)[C@H](OC)C2)C[C@@H](O)[C@H](C)/C=C(\C)[C@@H](O)[C@@H](OC)C(=O)[C@H](C)C[C@H](C)/C=C/C=C/C=C/1C,,patients with advanced solid tumours,"intravenous, 8 mg weekly, any grade",AE leading to dose interruption,56.3%
O=C(Nc1ccccc1)C1CCN(C(=O)Oc2cccnc2)CC1,refers to: musculoskeletal disorders,healthy women,"oral, 60 mg, 7 days",subjects with adverse event,7.1%
C[C@]1(CO)Cc2ncn(-c3ccc(C#N)c(Cl)c3)c2C(=O)O1,,human,"3 mg multiple doses, fasted",subjects with any TEAE,55.6%
COc1cc2c(Oc3ccc4[nH]c(C)cc4c3F)ccnc2cc1OCC1(N)CC1,,paediatric recurrent refractory sarcoma,8 mg,grade 3 abdominal distension,0%
CC(C)[C@@H]1NC(=O)CNC(=O)[C@H](CC(N)=O)NC(=O)[C@H](CCCNC(=N)N)NC(=O)[C@H](Cc2ccc(O)cc2)NC(=O)[C@H](C(C)C)NC(=O)[C@@H](NC(=O)[C@@H](NC(=O)[C@H](CC(N)=O)NC(=O)[C@H](Cc2c[nH]c3ccccc23)NC(=O)[C@H](C)NC(=O)[C@H](Cc2ccccc2)NC(=O)CN)C(C)C)CSSC[C@@H](C(=O)N[C@@H](Cc2cnc[nH]2)C(=O)N[C@@H](CCCNC(=N)N)C(=O)N[C@@H](CCCNC(=N)N)C(=O)N[C@@H](C)C(=O)N[C@@H](CC(N)=O)C(N)=O)NC(=O)[C@H](C(C)C)NC(=O)[C@H](CCCNC(=N)N)NC1=O,,"ICR mouse, serum","ip, 10 mg/kg, 3 d dosing, blood day 5",total protein,51.6 ± 0.98 g/L
CCCCCOc1ccc(-c2ccc(-c3ccc(C(=O)N[C@H]4C[C@@H](O)[C@@H](OCC[N+](C)(C)C)NC(=O)[C@@H]5[C@@H](O)[C@@H](C)CN5C(=O)[C@H]([C@@H](C)O)NC(=O)[C@H]([C@H](O)[C@@H](O)c5ccc(O)cc5)NC(=O)[C@@H]5C[C@@H](O)CN5C(=O)[C@H]([C@@H](C)O)NC4=O)cc3)cc2)cc1,,"adult patients in ICU, plasma","intravenous, 400 mg loading dose, after first dose, arithmetic mean",Cmin,2190 ng/mL
C[C@]1(O)C[C@@](N)(c2ccc(-c3nc4n(c3-c3ccccc3)COc3ccncc3-4)cc2)C1,,"human, advanced or metastatic solid tumours","dose not given, all patients, any grade",patients with Dyspnea TEAE,11.8%
CC[C@H](C)CCCCC(=O)N[C@@H](CCN)C(=O)N[C@H](C(=O)N[C@@H](CCN)C(=O)N[C@H]1CCNC(=O)[C@H]([C@@H](C)O)NC(=O)[C@H](CCN)NC(=O)[C@H](CCN)NC(=O)[C@H](CC(C)C)NC(=O)[C@@H](Cc2ccccc2)NC(=O)[C@H](CCN)NC1=O)[C@@H](C)O,,"human, critically ill, AKI, plasma","dose not given, mean",fAUC(0-24) steady state,65300 ng·h/mL
CC(C)(O)c1cc(Nc2cc(Oc3cn(C4CC4)nc3C3CCOCC3)ccn2)ccn1,,"patients with advanced cancer, Japanese cohort","oral, dose not given, treatment-related adverse events","ALT increased, grade ≥3",0%
C[C@@H](NC(=O)N1C(=O)[C@H](Cc2ccnc(N)c2)[C@H]1C(=O)O)C1CCCCC1,,healthy Chinese adult volunteers,"continuous intravenous infusion, dose not given, 5.0 days, CTCAE 5.0, all doses",serious adverse events,0%
Cc1ccc2cc(N3CCC4(O)C(=O)c5cc(C)c(C)cc5N=C34)ccc2n1 (centres unmarked),respiratory safety pharmacology,rat,"IV, dose not given",minute volume,no effect

# Repeated from above:
SMILES,assay,system,conditions,quantity,value
COc1cc2c(Oc3ccc4[nH]c(C)cc4c3F)ccnc2cc1OCC1(N)CC1,,paediatric recurrent refractory sarcoma,8 mg,grade 3 abdominal distension,0%
CC(C)[C@@H]1NC(=O)CNC(=O)[C@H](CC(N)=O)NC(=O)[C@H](CCCNC(=N)N)NC(=O)[C@H](Cc2ccc(O)cc2)NC(=O)[C@H](C(C)C)NC(=O)[C@@H](NC(=O)[C@@H](NC(=O)[C@H](CC(N)=O)NC(=O)[C@H](Cc2c[nH]c3ccccc23)NC(=O)[C@H](C)NC(=O)[C@H](Cc2ccccc2)NC(=O)CN)C(C)C)CSSC[C@@H](C(=O)N[C@@H](Cc2cnc[nH]2)C(=O)N[C@@H](CCCNC(=N)N)C(=O)N[C@@H](CCCNC(=N)N)C(=O)N[C@@H](C)C(=O)N[C@@H](CC(N)=O)C(N)=O)NC(=O)[C@H](C(C)C)NC(=O)[C@H](CCCNC(=N)N)NC1=O,,"ICR mouse, serum","ip, 10 mg/kg, 3 d dosing, blood day 5",total protein,51.6 ± 0.98 g/L
